Measured values gathered from unrelated publications.
Lines come from different studies, so protocols differ. Values joined by “and” are separate records of one study, mostly repeats; a detail may differ. ± marks the error that the study gave.

| SMILES | target or system | test | test system | setting | how to read | measurement | value |
| --- | --- | --- | --- | --- | --- | --- | --- |
| Cc1cnc2nc1Nc1cccc(c1)COC/C=C/COCc1cc(ccc1OCCN1CCOCC1)N2 |  |  | BALB/c mice rhEPO-induced polycythemia | 100 mg/kg |  | spleen weight | 0.141 g and 0.158 g and 0.148 g and 0.144 g and 0.15 g and 0.134 g |
| CC(CCC(=O)NCc1ccc(C(=O)NO)cc1)C1CCC2C3C(O)CC4CC(O)CCC4(C)C3CCC12C (centres unmarked) |  | measured: TCA | PCK rat (Pkhd1 mutant), liver | oral gavage, dose not given, 5 months | baseline: total bile acids | relative abundance | 49.7% |
| CN1CCCNC(=O)c2cccc(c2)C(=O)NCCCN(C)CCCNc2cccc3c2C(=O)c2cccc(c2C3=O)NCCC1 | SAS | RNA-Seq, measured: JMJD6 mRNA |  | 1 µM, 6 h | baseline: untreated cells | log2 fold change | -2.22 |
| COC1OC(C)C(OS(=O)(=O)O)C(OC2OC(C)C(OS(=O)(=O)O)C(OC3OC(C)C(OS(=O)(=O)O)C(OC4OC(C)C(OS(=O)(=O)O)C(OS(=O)(=O)O)C4O)C3O)C2O)C1O (centres unmarked) |  |  | human plasma | 128 µg/mL | baseline: control | APTT prolongation | 1.1 fold |
| CN1CCC[C@]1(C)/C=C/S(=O)(=O)NC(=O)Nc1c2c(cc3c1CCC3)CCC2 |  |  | human, whole blood ex vivo | 50 mg twice daily, day 14, 36 h, multiple ascending dose, together with: LPS and ATP |  | IL-18 inhibition | 112% |
| CC(=O)[O-].O.O.O.O.[Ni+2].[O-]c1ccc(Br)cc1C=NCCN1CCOCC1 |  | nitric oxide scavenging |  | 80 µM |  | inhibition | 19.8% |
| COC1OC(C)C(O)C(OC2OC(C)C(O)C(OC3OC(C)C(O)C(OC4OC(C)C(O)C(OC5OC(C)C(O)C(OC6OC(C)C(O)C(OC7OC(C)C(O)C(OC8OC(C)C(O)C(OC9OC(C)C(O)C(OS(=O)(=O)O)C9OS(=O)(=O)O)C8OS(=O)(=O)O)C7OS(=O)(=O)O)C6OS(=O)(=O)O)C5OS(=O)(=O)O)C4OS(=O)(=O)O)C3OS(=O)(=O)O)C2OS(=O)(=O)O)C1OS(=O)(=O)O (centres unmarked) |  |  | human plasma | 128 µg/mL | baseline: control | APTT prolongation | 1.3 fold |
| CCCC[C@@H](CSS(=O)(=O)O)NCCC |  |  | Swiss Webster mice, Schistosoma mansoni infected | 100 mg/kg | baseline: vehicle control | spleen weight decrease | 16% |
| C=CC(=O)N1CC2C(=O)N(CCN(C)C)c3c(c4cc(Cl)c(-c5c(O)cccc5F)nc4n(-c4c(C)ccnc4C(C)C)c3=O)N2CC1C (centres unmarked) |  | ELISA | BALB/c nude mouse, H358 xenograft, tumour | 10 mg/kg | baseline: vehicle | active RAS level | decreased |
| COc1cc2c(NC3CCN(C(C)C)CC3)cc(N3CCOCC3)nc2cc1OCCCN1CCCC1 |  | TMT proteomics, measured: ENO1 | 5xFAD mouse, hippocampus | dose not given | baseline: untreated 5xFAD | log2 fold change | 0.0621 |
| COC1OC(C)C(OC2OC(C)C(OS(=O)(=O)O)C(OC3OC(C)C(OS(=O)(=O)O)C(OS(=O)(=O)O)C3OS(=O)(=O)O)C2OS(=O)(=O)O)C(OS(=O)(=O)O)C1OS(=O)(=O)O (centres unmarked) |  |  | human plasma | 128 µg/mL | baseline: control | APTT prolongation | 1.8 fold |
| CCC(=O)N[C@@H](C)C(=O)OCC(=O)N[C@@H](C)C(=O)O |  |  | water | pH 6, 25 °C |  | chain scission rate constant | 0.0009 h⁻¹ |
| Nc1nc2cnc(C(=O)N3CCOC[C@@H]3c3ccc(C(F)(F)F)cc3)cc2c2c1COC2 |  | ELISA, measured: SDMA | mouse, HCT-116 MTAP wild type xenograft, tumour | oral, 30 mg/kg once daily | baseline: vehicle | inhibition | 56% |
| Nc1ncc(-c2cc(-c3cnn(CC(F)(F)F)c3)ncc2F)nc1C(=O)NC1CNCC(F)C1 (centres unmarked) | LKB1 | KINOMEscan |  | 1 µM | baseline: DMSO control | remaining binding | 51% |
| COC1OC(C)C(O)C(OC2OC(C)C(O)C(OC3OC(C)C(O)C(OC4OC(C)C(O)C(OC5OC(C)C(O)C(OC6OC(C)C(O)C(OC7OC(C)C(O)C(OC8OC(C)C(O)C(OC9OC(C)C(O)C(OC%10OC(C)C(O)C(OS(=O)(=O)O)C%10OS(=O)(=O)O)C9OS(=O)(=O)O)C8OS(=O)(=O)O)C7OS(=O)(=O)O)C6OS(=O)(=O)O)C5OS(=O)(=O)O)C4OS(=O)(=O)O)C3OS(=O)(=O)O)C2OS(=O)(=O)O)C1OS(=O)(=O)O (centres unmarked) |  |  | human plasma | 128 µg/mL | baseline: control | APTT prolongation | 1.4 fold |
| COC1CN([C@H]2CC[C@H]([C@@]3(C)Oc4c(Cl)cc(C(=O)NCc5c(SC)cc(C)[nH]c5=O)c(C)c4O3)CC2)C1 |  | RNA-seq, measured: HECTD2 mouse homolog | mouse, HT-1376 xenograft, whole blood | dose not given | baseline: vehicle | log2 fold change | 0.0322 |
| O=CC1C(=O)Nc2ccccc21 (centres unmarked) |  | HPLC-MS |  | pH 10.2, together with: 50 mM N-α-acetyl-lysine |  | pseudo-first-order rate constant | 0 h⁻¹ |
| CCCCCCCCCCCCCCCC(=O)OCC(CSC[C@H](N)C(=O)N[C@@H](CO)C(=O)N[C@@H](CCCCN)C(=O)N[C@@H](CCCCN)C(=O)N[C@@H](CCCCN)C(=O)N[C@@H](CCCCN)C(=O)NCCCCCC(=O)N[C@@H](CCCCN)C(=O)N[C@@H](CC(C)C)C(=O)N[C@H](C(=O)N[C@@H](Cc1ccccc1)C(=O)N[C@@H](Cc1ccccc1)C(=O)N[C@@H](Cc1ccc2ccccc2c1)C(=O)O)C(C)C)OC(=O)CCCCCCCCCCCCCCC (some centres unmarked) |  |  | APP/PS1 mouse, hippocampus | local injection, dose not given, unit not given | baseline: injected over adjacent side | GFAP level | 0.707 and 1.11 and 1.23 |
| COC1OC(C)C(OS(=O)(=O)O)C(OC2OC(C)C(OS(=O)(=O)O)C(OC3OC(C)C(OS(=O)(=O)O)C(OS(=O)(=O)O)C3OS(=O)(=O)O)C2OS(=O)(=O)O)C1OS(=O)(=O)O (centres unmarked) |  |  | human plasma | 128 µg/mL | baseline: control | APTT prolongation | 1.7 fold |

| SMILES | target or system | test | test system | setting | how to read | measurement | value |
| --- | --- | --- | --- | --- | --- | --- | --- |
| CN1CCC(N[C@@H]2CCc3[nH]c4c(C(N)=O)ccc(-c5ccccc5Cl)c4c3C2)CC1 |  | organoid viability, CellTiter-Glo 3D | sample C colorectal cancer organoid, human | 6 days |  | IC50 | 0.02 µM |
| COC1OC(C)C(OC2OC(C)C(OS(=O)(=O)O)C(OC3OC(C)C(OC4OC(C)C(OS(=O)(=O)O)C(OC5OC(C)C(OC6OC(C)C(OS(=O)(=O)O)C(OS(=O)(=O)O)C6O)C(OS(=O)(=O)O)C5O)C4O)C(OS(=O)(=O)O)C3O)C2O)C(OS(=O)(=O)O)C1O (centres unmarked) |  |  | human plasma | 128 µg/mL | baseline: control | APTT prolongation | 1.2 fold |
| Cc1ncsc1-c1ccc(C(C)NC(=O)C2CC(O)CN2C(=O)C(NC(=O)CCCCCCCCCCN2CCCC(Nc3ncc(Cl)c(Nc4ccccc4S(=O)(=O)C(C)C)n3)C2)C(C)(C)C)cc1 (centres unmarked) | 22Rv1 | RNA-seq, measured: SLFNL1-AS1 |  | concentration not given | baseline: DMSO | log2 fold change | -1.12 |
| CCCC[C@H](NC(C)=O)C(=O)N[C@@H](CO)C(=O)N[C@H](C(=O)N1CCC[C@H]1C(=O)N[C@]1(C)CCCCCCC=CCCC[C@@](C)(C(=O)N[C@@H](Cc2ccccc2)C(=O)N[C@@H](CCCCN)C(=O)N[C@@H](CCCNC(=N)N)C(=O)N[C@@H](CC(C)C)C(=O)N[C@@H](CCC(N)=O)C(N)=O)NC(=O)[C@H](CCCNC(=N)N)NC(=O)[C@H](CCCC)NC(=O)[C@H](CC(C)C)NC(=O)[C@H](CCCNC(=N)N)NC(=O)[C@H](CCCNC(=N)N)NC(=O)[C@H](CCCNC(=N)N)NC1=O)[C@@H](C)O | proteinase K (Tritirachium album) | proteolytic stability, LC-MS |  | 25 µM, 246.0 min, pH 7.4 |  | remaining intact peptide | 68.4% and 62.5% |
| C[C@@H]1CN(c2ccnc(C(=O)N[C@H]3C[C@@H]3c3ccccc3)c2)CC[C@@H]1O |  |  | female heterozygous Slc6a8 P549L mice, left brain hemisphere | oral, 30 mg/kg twice daily, 8 h |  | brain creatine level | 1190 µg/mL and 1280 µg/mL and 1200 µg/mL |
| CCCCCc1ccc(S(=O)(=O)N2CC2C(=O)OC)cc1 (centres unmarked) |  |  | mouse, Lewis lung carcinoma | intraperitoneal, 5 mg/kg, 16 doses, day 15 |  | tumour volume | 589 mm3 |
| COCCOCCOCCNC(=O)Cc1cc(CC(=O)N[C@H]2C[C@H]3C(=O)Nc4cc(OCCOCCOCCOC)cc(n4)C(=O)N4CCC[C@H]4C(=O)Nc4cc(OCCOCCOCCOC)cc(n4)C(=O)N4CCC[C@H]4C(=O)Nc4cc(OCCOCCOCCOC)cc(n4)C(=O)N3C2)cc(CC(=O)N[C@H]2C[C@H]3C(=O)Nc4cc(OCCOCCOCCOC)cc(n4)C(=O)N4CCC[C@H]4C(=O)Nc4cc(OCCOCCOCCOC)cc(n4)C(=O)N4CCC[C@H]4C(=O)Nc4cc(OCCOCCOCCOC)cc(n4)C(=O)N3C2)c1 |  | anion binding, ITC | water/acetonitrile 95 vol% (98.2 mol%) | 298 K, together with: sodium sulfate |  | ΔG | -22.7 ± 0.3 kJ/mol |
| S=C(S)OC1CC2CC1C1CCCC21 (centres unmarked) |  | LC-MS/MS, measured: extracellular Leu-enkephalin | mouse striatal brain slices | 500 µM, 20 min, together with: 50 mM KCl |  | Leu-enkephalin concentration | 602 pM and 580 pM and 378 pM and 759 pM and 1000 pM and 707 pM and 1450 pM and 487 pM |
| CCCCC(CSS(=O)(=O)O)NCC(C)C (centres unmarked) |  |  | Swiss Webster mice, Schistosoma mansoni infected | 100 mg/kg | baseline: vehicle control | spleen weight decrease | 15% |
| COc1cc(O)ccc1CCC(c1ccc(O)cc1)c1cc2c(c(C)c1O)OC(c1ccc(O)cc1)CC2 (mixture of isomers) |  |  | human blood | 10 µM, together with: A23187 |  | arachidonic acid level | 105000 ± 16900 pg/mL |
| O=S(=O)(NCc1ccncc1)c1ccc(C2CCCCC2)cc1 |  | bulk RNA sequencing | CK-p25 mice, female, microglia | intraperitoneal, 0.3 mg/kg daily for 2 weeks, 336 h, genes, PU.1 target, upregulated |  | PU.1 target genes further upregulated | 1.5% |
| C=CC(=O)Nc1cccc(Cn2ncc3cnc(Nc4cnn(CCOC)c4)nc32)c1 | EPHA1 human | binding, KINOMEscan |  | 100 nM | lower = stronger binding | percent of control | 31% |
| O=C(N[C@@H](Cc1ccc(OCCCCC2CCNCC2)cc1)C(=O)O)c1nc2ccccc2o1.O=C(O)C(F)(F)F |  |  | human, platelet-rich plasma | 100 µM, together with: thrombin |  | clot retraction velocity | 0.00432 min⁻¹ and 0.00492 min⁻¹ and 0.0024 min⁻¹ |
| COc1ccc(S(=O)(=O)N2CCc3ccccc3C2)cc1N1CCN(C(=O)c2ccc(F)cc2C(F)(F)F)CC1 |  | stereology, optical fractionator, measured: tyrosine hydroxylase | rat, 6-OHDA lesion model, substantia nigra pars compacta, intact side | 0.3 µg/24 h |  | TH-immunoreactive cell number | 395 ± 40.5 |
| Oc1cc2c(cc1O)C(c1ccco1)NCC2 (centres unmarked) |  | ferrozine | cell-free | 100 µM, DMSO solvent |  | Fe2+ chelation | 93.8 ± 1.07% |
| CNS(=O)(=O)Nc1nccc(Cc2c(C)c3ccc(Oc4ncccc4F)cc3oc2=O)c1F | MP46 | cell viability |  | 7 days |  | IC50 | 0.00271 µM |
| Oc1cccc(C2NCCc3cc(O)c(O)cc32)c1 (centres unmarked) |  | ferrozine | cell-free | 100 µM, DMSO solvent |  | Fe2+ chelation | 91.3 ± 1.19% |
| Cc1[nH]nc2c1N=C(c1ccccc1Cl)c1cnc(N3CCOCC3)cc1N2 |  |  | mouse HCC1806 TNBC xenograft | oral, 10 mg/kg once daily |  | tumour growth inhibition | 73.3% |
| O=[N+]([O-])c1cc(Br)cc([N+](=O)[O-])c1NS(=O)(=O)c1ccc(Br)cc1 |  | RNA-seq, measured: AT1G05680 | Arabidopsis thaliana Col seedlings | dose not given | baseline: DMSO | log2 fold change | 3.52 |

A few entries again:
| SMILES | target or system | test | test system | setting | how to read | measurement | value |
| --- | --- | --- | --- | --- | --- | --- | --- |
| COc1ccc(S(=O)(=O)N2CCc3ccccc3C2)cc1N1CCN(C(=O)c2ccc(F)cc2C(F)(F)F)CC1 |  | stereology, optical fractionator, measured: tyrosine hydroxylase | rat, 6-OHDA lesion model, substantia nigra pars compacta, intact side | 0.3 µg/24 h |  | TH-immunoreactive cell number | 395 ± 40.5 |
| Oc1cc2c(cc1O)C(c1ccco1)NCC2 (centres unmarked) |  | ferrozine | cell-free | 100 µM, DMSO solvent |  | Fe2+ chelation | 93.8 ± 1.07% |
| CNS(=O)(=O)Nc1nccc(Cc2c(C)c3ccc(Oc4ncccc4F)cc3oc2=O)c1F | MP46 | cell viability |  | 7 days |  | IC50 | 0.00271 µM |
| Oc1cccc(C2NCCc3cc(O)c(O)cc32)c1 (centres unmarked) |  | ferrozine | cell-free | 100 µM, DMSO solvent |  | Fe2+ chelation | 91.3 ± 1.19% |
| Cc1[nH]nc2c1N=C(c1ccccc1Cl)c1cnc(N3CCOCC3)cc1N2 |  |  | mouse HCC1806 TNBC xenograft | oral, 10 mg/kg once daily |  | tumour growth inhibition | 73.3% |
| O=[N+]([O-])c1cc(Br)cc([N+](=O)[O-])c1NS(=O)(=O)c1ccc(Br)cc1 |  | RNA-seq, measured: AT1G05680 | Arabidopsis thaliana Col seedlings | dose not given | baseline: DMSO | log2 fold change | 3.52 |
